Measured values from different studies.
Lines come from different studies, so protocols differ. ± gives the spread as reported.

For `Cc1cccc(CNC(=O)c2cn(CCNC(=O)c3ccccc3S)c3cc4c(cc3c2=O)OC(F)(F)O4)n1`, the Cmax was 5420 ± 552 ng/mL (Sprague-Dawley rat, male, plasma; intravenous, 20 mg/kg of parent drug).
For `Cn1c(C(F)(F)F)cc(=O)n(-c2cc(Oc3cccnc3OCC(=O)O)c(Cl)cc2F)c1=O`, the Cmax was 441 ng/mL (Crl:CD(SD) rats, male, plasma; oral diet, 300 ppm in diet, day 1, 90-day toxicity study).
`COC[C@@H](CC(C)C)NC(=O)c1ccc(C)c(C)c1` has a Cmax ratio of 4.67 (Sprague-Dawley rats, plasma; oral, 30 mg/kg; relative to: female over male).
For `CSc1ccccc1C(=O)NCCn1cc(C(=O)NCc2cccc(C)n2)c(=O)c2cc3c(cc21)OC(F)(F)O3`, the Cmax was 417 ± 45.8 ng/mL (Sprague-Dawley rat, male, whole blood; intravenous, 5 mg/kg of parent compound).
For `CN1CCC[C@H](CN2c3ccccc3Sc3ccccc32)C1.Cl`, the Cmax was 6600 ng/g (female Wistar rat, brain; oral, 16 mg/kg).
With `C=CC(=O)N1CCC(Oc2cc3c(Nc4ccc(Cl)c(Cl)c4F)ncnc3cc2OC)CC1` the Cmax ratio was 1.59 fold (Sprague-Dawley rat male, plasma; oral, 2 mg/kg, together with: schisandrin B 20 mg/kg daily 1 weeks pretreatment; relative to: no pretreatment).
The Cmax of `C=CC(=O)N1CCC[C@@H](n2nc(-c3ccc(Oc4ccccc4)cc3)c3c(N)ncnc32)C1` is reported as 319 ± 97.9 ng/g (male Wistar rat, kidney; oral, 50 mg/kg).
`Cc1cc(C(=O)NC(C)(C)COc2cccc3c2C(N)=NS(=O)(=O)N3)cc(C)n1.O=S(=O)(O)O` gave a Cmax ratio of 1.76 (Sprague-Dawley rat, plasma; oral, 100 mg/kg, vehicle 1% methylcellulose; relative to: female over male).
`Cc1nc2cccc(OCC(C)(C)C(=O)NC(C)C)c2c(N)c1C(=O)O` gave a Cmax ratio of 9.18 (male Sprague-Dawley rat, plasma; dietary, 60 mg/kg/day; relative to: day 90 over day 7).
With `CCCC(CCC)NC(=O)c1ccc2c(c1)OCO2` the Cmax ratio was 0.87 (Sprague-Dawley rats, plasma; oral, 200 mg/kg; relative to: female over male).

For quick reference, copied from above:
`Cc1nc2cccc(OCC(C)(C)C(=O)NC(C)C)c2c(N)c1C(=O)O` gave a Cmax ratio of 9.18 (male Sprague-Dawley rat, plasma; dietary, 60 mg/kg/day; relative to: day 90 over day 7).
